Results from different studies.
Lines come from different studies, so protocols differ. ± marks the error that the study gave.
Cell line: RAW264.7

CCOC(=O)c1csc2nc(-c3cccc(NC(=O)c4cc5cc(NC(=O)c6ccco6)ccc5n4Cc4ccc(C(F)(F)F)cc4)c3)cn12  intracellular Fe2+ level (10 µM, added: LPS; baseline: control): increased
Cc1ccc(S(=O)(=O)Nc2ccc(O)c3ccccc23)c(C)c1  IL-1β secretion inhibition (10 µM, 24 h, added: LPS 1 µg/mL): 86%
C=CCc1ccc(OC(=O)COC(=O)[C@]2(C)C3CC[C@]4(C)C(C(=O)C=C5C6[C@@H](C)[C@H](C)CC[C@]6(C)CC[C@]54C)[C@@]3(C)CC[C@H]2OC(C)=O)c(OC)c1 (stereo partly shown)  inhibition (NO release, inhibitor, Griess; 10 µM, 24 h, LPS-stimulated): 69.5%
C=CC(=O)Nc1ccc2c(c1)cc(C(=O)Nc1cccc(-c3cn4c(C(=O)OCC)csc4n3)c1)n2Cc1ccc(C(F)(F)F)cc1  IC50 (TNF-α release, inhibitor, ELISA; 24 h, LPS-stimulated): 62.8 µM
COc1cccc(/C=C/C(=O)c2ccc(C)o2)c1OC  inhibition (IL-6 release, inhibitor, ELISA; 10 µM, LPS-stimulated): 73 to 89%
CCOP(=O)(OCC)OCCCCOC(=O)C(C)c1ccc(CC(C)C)cc1 (stereo not shown)  COX-2 protein level (western blot; 130 µM, 12 h, added: LPS 100 ng/mL): inhibited
C/C=C(/NC(=O)CCCCCCC)C(=O)N/C(=C/C)C(=O)N[C@H](CC(C)C)C(=O)N[C@@H](CC(C)C)C(=O)Nc1ccc(C(=O)N[C@H](C(=O)O)[C@@H](C)O)cc1  inhibition (NO release, inhibitor, Griess; 10 µM, 24 h, LPS-stimulated): 44.6%
CC(=O)O[C@@H]1CC[C@@]2(C)C(CC[C@]3(C)C2C(=O)C=C2C4[C@@H](C)[C@H](C)CC[C@]4(C)CC[C@]23C)[C@@]1(C)c1nnc(SCC(=O)OC2CC(C)CCC2C(C)C)o1 (stereo partly shown)  inhibition (NO release, inhibitor, Griess; 10 µM, 24 h, LPS-stimulated): 74.4%
CCOC(=O)c1nc2cc(Cl)c(Cl)cc2nc1N1CCN(C(=O)Nc2ccc(N3CCNCC3)cc2)CC1  glucose consumption (5 µM, added: LPS): decreased
C[C@H]1[C@H](C)CC[C@]2(C(=O)O)CC[C@]3(C)C(=CC[C@@H]4[C@@]5(C)CC[C@H](O[C@@H]6O[C@@H](C)[C@H](O[C@@H]7O[C@@H](C)[C@H](O)[C@@H](O)[C@H]7O)[C@@H](O[C@@H]7O[C@@H](C)[C@H](O)[C@@H](O)[C@H]7O)[C@H]6O)C(C)(C)[C@@H]5CC[C@]43C)[C@H]12  EC50 (LPS-induced NO production, inhibitor, Griess reaction; 24 h, added: 100 ng/mL LPS): 9.8 ± 0.3 µM
C=CCc1ccc(OC(=O)CSc2nnc([C@]3(C)C4CC[C@]5(C)C(C(=O)C=C6C7[C@@H](C)[C@H](C)CC[C@]7(C)CC[C@]65C)[C@@]4(C)CC[C@H]3OC(C)=O)o2)c(OC)c1 (stereo partly shown)  inhibition (NO release, inhibitor, Griess; 10 µM, 24 h, LPS-stimulated): 76.2%
Cc1ccc(NCc2cn(-c3ccc(S(N)(=O)=O)cc3)nc2-c2ccc(OCc3ccccc3)cc2)cc1  inhibition (TNF-α release, inhibitor, ELISA; 20 µM, LPS-stimulated): 71.5%
C[C@H]1[C@H](C)CC[C@]2(C(=O)O)CC[C@]3(C)C(=CC[C@@H]4[C@@]5(C)CC[C@H](O[C@@H]6O[C@@H](C)[C@H](O[C@@H]7O[C@@H](C)[C@H](O)[C@@H](O)[C@H]7O)[C@@H](O)[C@H]6O)C(C)(C)[C@@H]5CC[C@]43C)[C@H]12  EC50 (LPS-induced NO production, inhibitor, Griess reaction; 24 h, added: 100 ng/mL LPS): 16 ± 3 µM
COc1ccc(/C=N\NC(=O)[C@]2(C)C3CC[C@]4(C)C(C(=O)C=C5C6[C@@H](C)[C@H](C)CC[C@]6(C)CC[C@]54C)[C@@]3(C)CC[C@H]2OC(C)=O)cc1OC (stereo partly shown)  inhibition (NO release, inhibitor, Griess; 10 µM, 24 h, LPS-stimulated): 68.6%
CC[C@H](C)[C@H](NC(=O)[C@H](CCCCN)NC(=O)[C@H](CC(N)=O)NC(=O)CNC(=O)[C@@H](NC(=O)[C@H](C)NC(=O)[C@H](CCCNC(=N)N)NC(=O)[C@H](CC(C)C)NC(=O)[C@H](CCCCN)NC(=O)[C@H](CCCCN)NC(=O)[C@H](CCCCN)NC(=O)[C@H](C)NC(=O)[C@H](CCCCN)NC(=O)[C@@H]1CSSC[C@H](NC(=O)[C@H](CCCNC(=N)N)NC(=O)CN)C(=O)N[C@@H](CC(N)=O)C(=O)N[C@@H](CC(C)C)C(=O)N[C@@H](CC(C)C)C(=O)N1)C(C)C)C(=O)N[C@@H](CCCCN)C(=O)N[C@@H](CCC(=O)O)C(=O)N[C@H](C(=O)N[C@@H](CCCCN)C(=O)N[C@@H](CC(N)=O)C(=O)N[C@H](C(=O)N[C@H](C(=O)N[C@@H](Cc1ccccc1)C(=O)N[C@@H](CC(N)=O)C(=O)N[C@@H](CCCNC(=N)N)C(=O)O)C(C)C)C(C)C)[C@@H](C)CC  IL-6 production (20 µM, 2 h pretreatment, added: LPS 24 h after washing): decreased
COc1ccc(OC)c(/C=N\NC(=O)[C@]2(C)C3CC[C@]4(C)C(C(=O)C=C5C6[C@@H](C)[C@H](C)CC[C@]6(C)CC[C@]54C)[C@@]3(C)CC[C@H]2OC(C)=O)c1 (stereo partly shown)  inhibition (NO release, inhibitor, Griess; 10 µM, 24 h, LPS-stimulated): 89.7%
CCOC(=O)c1csc2nc(-c3cccc(NC(=O)c4cc5cc(NC(=O)C(C)Cl)ccc5n4Cc4ccc(C(F)(F)F)cc4)c3)cn12 (stereo not shown)  intracellular MDA level (10 µM, added: LPS; baseline: control): increased
COc1cc(C=O)ccc1OC(=O)COC(=O)[C@]1(C)C2CC[C@]3(C)C(C(=O)C=C4C5[C@@H](C)[C@H](C)CC[C@]5(C)CC[C@]43C)[C@@]2(C)CC[C@H]1OC(C)=O (stereo partly shown)  inhibition (NO release, inhibitor, Griess; 10 µM, 24 h, LPS-stimulated): 66.4%
Oc1ccc(-c2cc(-c3ccc(OCCN4CCCCC4)cc3)n(-c3ccc(O)cc3)n2)cc1  EC50 (cytotoxicity, Alamar blue): 12.3 ± 3.7 µM
